Measured values pooled from the literature.
A part holds a random share of what one study measured.

Sample 1 — technique: RNA Bind-n-Seq; molecule type: RNA; matrix: in vitro; tested at: 365 nM; baseline: no-protein control; reading: higher = stronger binding; quantity: RBNS enrichment (R)
Target: RNA binding protein fox-1 homolog 2, RRM domain, GST-SBP tag (RBFOX2, Homo sapiens, UniProt O43251-10, residues 100-194)
Notes: natural RNA segment, single round, ends assumed
All sequences stand within: GGGAGUUCUACAGUCCGACGAUC … UGGAAUUCUCGGGUGCCAA
Construct (chain): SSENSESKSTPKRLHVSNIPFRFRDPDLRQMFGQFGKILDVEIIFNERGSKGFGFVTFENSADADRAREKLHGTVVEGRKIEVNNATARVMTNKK
CCUCCUAGGGUCACAGUCGGUCAGCUUGGCUGCUCCAUUCUUUCAUAGGCAGGAUUCCUAAUUCCUGCCACUCCCCCUAAGAGCAGGACUUCCCUAUGCCAGCACAUGUG: 0.322
GCCAAUUGUUUUGCAGUACUUUAUUAUAUUGGGUGUCUUGUCUUUUUUGGGCUUUUAGUUAGCUAAUGAAUGAAUACAUUAGACACUUUUGGGUUUUAGUUGGGAUUUUA: 0.604
UGCUGGCUUUUAGUGGUGUGUGUAGUUUGCUUGUAAGGGUGGGUUUGGCCCUGCAGGCCAGCUGUUUUAAUAAAGUGGGCACAUUCCCUCAUUUGGUGCCUUUUGUUAGG: 1.19
GCCCUAUUUUACAAUUGUAAAACUGAGGCACGAGCAAAGUGAAGACACUGGCUCAUAUUCCUGCAGCCUGGAGGCCGGGUGCUCAGGGCUGACACGUCCACCCCAGUGCA: 1.62
AACCCAGGUUAAAUACAGCCCAUGCACAAAGCCACAGGCCAAAGCCUAUGGAAUUGUUUUUAAUCAUCAAAUUUAACCAUUUUCAUAACUGGUUCCUGGAGGUGUGCAGU: 0.347
UUCAAGCUUUAGCGUGCAUCAGAAUCACCUGUAGGGCUUGUUAAAACACUAAUUGCUGGGCCUCAACCCAAAAGCCCCCAAAGUGGCACUUCUGAGUUCCUGCUGAUGUU: 0.253
CUGGUGCCGGCCUUGCCUGCAGCAAUGUAGCUGAGGACUGGUCUGAAGGCCAGGAGCCCUGUGCUCUUGACAUCACUGUACUCCCUCUCCCUCCCCGCAACCCUGCCCCA: 0.464
UGUGUGUCCACCUUUCCAAAGAAAGGAAAGACAAAAAGAGUUUCCAGAUUGGCCCAGCUGCUGAUAGGUGAUUUUUUUUGCCCAUGAAUCAUGUAUCUCUUAGAGAAGAA: 0.338

Sample 2 — technique: universal PBM; molecule type: double-stranded DNA, one strand shown; matrix: in vitro; tested at: not given; reading: higher = stronger binding; quantity: E-score
Target: Sal-like protein 4, full length isoform B (SALL4, Homo sapiens, UniProt Q9UJQ4-2, residues 1-616)
Notes: 8-mer, flanks averaged, mean of replicates
Target sequence (chain): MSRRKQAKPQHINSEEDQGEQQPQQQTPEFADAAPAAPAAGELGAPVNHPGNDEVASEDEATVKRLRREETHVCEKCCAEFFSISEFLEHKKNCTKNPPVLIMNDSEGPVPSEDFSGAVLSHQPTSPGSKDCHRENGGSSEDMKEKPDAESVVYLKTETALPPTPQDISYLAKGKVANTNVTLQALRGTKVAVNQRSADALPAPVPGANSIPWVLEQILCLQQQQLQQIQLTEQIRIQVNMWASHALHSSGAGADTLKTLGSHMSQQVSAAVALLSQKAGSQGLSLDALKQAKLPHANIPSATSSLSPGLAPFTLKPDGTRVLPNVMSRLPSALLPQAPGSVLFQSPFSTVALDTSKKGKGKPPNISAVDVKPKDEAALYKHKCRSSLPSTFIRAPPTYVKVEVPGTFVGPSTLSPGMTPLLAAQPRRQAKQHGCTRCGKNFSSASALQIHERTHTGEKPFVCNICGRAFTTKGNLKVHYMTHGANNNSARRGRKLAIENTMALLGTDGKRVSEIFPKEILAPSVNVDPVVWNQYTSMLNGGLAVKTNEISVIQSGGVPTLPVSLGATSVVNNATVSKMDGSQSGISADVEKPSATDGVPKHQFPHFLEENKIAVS
GATTATCA: 0.24
TCCGCTAA: -0.0795
GAAACTCA: 0.0686
CAGCCGTC: -0.286
GATTGGAA: -0.0253
CTGAGTCA: -0.175
CGAGGGCC: -0.375
CTGTTTGC: 0.086
CTGTATTC: 0.132
CTTATCGA: 0.227
CTCTACCA: -0.0747
AGTTAAGA: 0.0557
AGTCGGAT: 0.0401
AGAGTCGA: -0.184
CCACTGCA: -0.0329
AATCTTGG: -0.0643
CGATAAAA: 0.256
GGCTGACA: -0.143
AGGCGAAA: -0.0732
ATAGGAGG: -0.0155
GATAACGC: -0.0436
ACCTCTCC: -0.105
GAAGTCGC: -0.237
GCTCCCAC: -0.292
CTGTGGGC: -0.251

Sample 3 — technique: RNA Bind-n-Seq; molecule type: RNA; matrix: in vitro; tested at: 1 µM; notes: whole 134-nt RNA, ends assumed; together with: 150 mM KCl; baseline: input library; reading: higher = stronger binding; quantity: log2 enrichment
Target: Ras GTPase-activating protein-binding protein 1, RRM domain (G3BP1, Homo sapiens, UniProt Q13283)
Sequence of UniProt Q13283 (whole entry, looked up): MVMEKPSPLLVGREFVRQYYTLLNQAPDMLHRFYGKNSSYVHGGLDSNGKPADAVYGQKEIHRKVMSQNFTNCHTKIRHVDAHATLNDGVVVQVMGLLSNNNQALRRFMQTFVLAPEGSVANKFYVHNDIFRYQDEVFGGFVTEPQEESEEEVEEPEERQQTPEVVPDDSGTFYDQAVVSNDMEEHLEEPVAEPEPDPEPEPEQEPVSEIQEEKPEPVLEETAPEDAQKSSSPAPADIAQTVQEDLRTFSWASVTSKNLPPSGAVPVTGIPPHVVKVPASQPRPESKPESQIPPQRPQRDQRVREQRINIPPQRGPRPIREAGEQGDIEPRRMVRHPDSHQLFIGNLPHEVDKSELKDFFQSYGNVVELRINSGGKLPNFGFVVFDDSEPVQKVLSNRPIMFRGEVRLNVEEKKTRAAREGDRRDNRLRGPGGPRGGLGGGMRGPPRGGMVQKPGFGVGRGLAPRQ
All sequences stand within: GGGAGUUCUACAGUCCGACGAUC … UGGAAUUCUCGGGUGUCAAGG
UCAAGUCCUGUGCUACACAUCGUAUGUACCGAAUCGGGGAAAGGAAAGGAAAGGAAAGUAUUAUGUUACGCCGUUCGGAUCUGCACUUCC: -0.243
CCUCAAGUCCUGUGCUACACAUCGUAUGUACCGAAUCGGAAGGGAAGGAAGGGAAAGUAUUAUGUUACGCCGUUCGGAUCUGCACUUCCA: -0.337
CACAGACAACACAAACCCACACAGACACAGAGGGAAGGGGUUGGGAUGGGGACAGGGUGCACAGCAGGGCGGGGUAGGACCCCAGCCCCU: -0.217
UGGCCCUGGUGGCAUGCGGGGAGGAAGAGGUGGCCUCAUGGAUCGUGGUGGUCCCGGUGGAAUGUUCAGAGGUGGCCGUGGUGGAGACCG: 1.18
CCUGUGCUACACAUCGUAUGUACCGAAUCGGGGUUUGGGGUUUUUUUGGGGUUUUUGGGGAAAGUAUUAUGUUACGCCGUUCGGAUCUGC: 1.27
CAAGUCCUGUGCUACACAUCGUAUGUACCGAAUCGGGAAAAAGGGUUUGGGUGGGAAAGUAUUAUGUUACGCCGUUCGGAUCUGCACUUC: 0.874
GUCCUGUGCUACACAUCGUAUGUACCGAAUCGGGAAAAAGGGAAAAAGGGGAAAAAGGAAAGUAUUAUGUUACGCCGUUCGGAUCUGCAC: -0.0144
CACAGACAACACGCACCCACACAGACACAGAGGGAAGGGGUUGGGAUGGGGACAGGGUGCACAGCAGGCCGGGGUAGGACCCCAGCCCCU: -0.218
CCCAUUCCAAGAUUUGCUGUUGGCAUUGUAAUAGGAAGAAAUGGAGAGAUGAUCAAAAAAAUACAAAAUGAUGCUGGUGUUCGCAUUCAG: -0.191

Sample 4 — technique: protein binding microarray; molecule type: double-stranded DNA, one strand shown; matrix: in vitro; tested at: not given; baseline: not given; reading: higher = stronger binding; quantity: E-score
Target: Histone acetyltransferase KAT6A, both winged helices, GST fusion (KAT6A, Homo sapiens, UniProt Q92794, residues 1-181)
Notes: 8-mer, flanks averaged, mean of 2 arrays, mostly near background
Residues (chain): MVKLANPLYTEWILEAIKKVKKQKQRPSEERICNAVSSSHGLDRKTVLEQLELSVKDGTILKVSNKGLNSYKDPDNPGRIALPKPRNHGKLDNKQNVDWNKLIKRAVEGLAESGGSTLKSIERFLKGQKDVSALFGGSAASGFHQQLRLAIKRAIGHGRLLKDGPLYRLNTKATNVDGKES
AACCTGAC: -0.1
CGCCAACG: 0.179
CACACAGA: -0.125
CGAATGCG: 0.294
AACGGTTC: 0.168
CTACACTC: -0.0421
AGACCTTG: -0.0764
AAGCCGGC: 0.323
ATTAAAGG: -0.112
CAGGGGCG: 0.0958
GACGCTGA: 0.166
GTCGTCAA: -0.00477
AGTGGTAC: -0.141
GTCGTATA: 0.0597
ATCCGCTC: 0.218
ATGCTGTA: -0.142
GTTAGGGA: -0.0415
CAGCGAAA: -0.027
CGTATCCA: -0.0944
AATGGCGT: 0.0488
ACACTGTG: -0.00579
CGCGGGAA: 0.318
CAGGGCGC: 0.276

A few entries again (sample 4):
CTACACTC: -0.0421
CGTATCCA: -0.0944
CGCCAACG: 0.179
AATGGCGT: 0.0488
CGAATGCG: 0.294
CACACAGA: -0.125
